Experimental data from different studies.
Each numbered part is a random draw from the data of one study; scales do not carry over between parts.

Study 1 — method: RNA Bind-n-Seq; form: RNA; matrix: in vitro; tested at: 365 nM; reference: no-protein control; reading: higher = stronger binding
Target: RNA binding protein fox-1 homolog 2, RRM domain, GST-SBP tag (RBFOX2, Homo sapiens, UniProt O43251-10, residues 100-194)
Setting: natural RNA segment, single round, ends assumed
Residues (chain): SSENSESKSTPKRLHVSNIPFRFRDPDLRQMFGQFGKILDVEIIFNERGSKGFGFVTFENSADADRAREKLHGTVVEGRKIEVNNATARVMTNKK
| Sequence | RBNS enrichment (R) |
| --- | --- |
| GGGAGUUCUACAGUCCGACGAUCCUCUGGUUAUAAUUGCCCCAGGGCCUGAUUCAGGACUGACUCUCCACCAUAAAACUGGAAGCUGCUUCCCCUGUAGUCCCCAUUUCAGUACCAGUUCUGCCAGCCACAGUUGGAAUUCUCGGGUGCCAA | 0.509 |
| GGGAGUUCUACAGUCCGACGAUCGAUUGCUCCUGCCUCCCUGCACAAGUCUAUCCGGUGCGGUAUCUAUCAGGUGUGAACUUGGCUGCUAGCGUAUGAACCCAGAUGUGACGCAGAGCCUCUGCAGCGAUCUUUGGAAUUCUCGGGUGCCAA | 0.306 |
| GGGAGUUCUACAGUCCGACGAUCCUCCUUUUCUAAAGGCUGAUCCAACUACACUUGUGGGCUAUUUUUCCAAGCUUUGUGUGAAACUUGAUGACAUUGGGCCAGCAAAAUGCAAAGAAGACUAUAGUUUCAGGUGGAAUUCUCGGGUGCCAA | 0.315 |
| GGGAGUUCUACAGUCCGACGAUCAAAAAGGCUAAAGGCUAUGCGAUAUGAAUUUCAGAAAUGGACUGAAAAUGGAGAGCUAUGUAACAGAUACACUACAGUAGAAGAACUUACUUCUGAAAUGAAGGGAAAAAUGGAAUUCUCGGGUGCCAA | 0.387 |
| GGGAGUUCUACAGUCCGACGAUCGGAUAAAGGCAAAUGAUUUGUGAGUCUUCUAGUUACUGGACCGAGUUUUCUGCUGGAUCUGGUGGGAAGGCAGCUCGGUAAAGUUUCCCUCCUGCUCCCCCCGCCCGACUUGGAAUUCUCGGGUGCCAA | 0.402 |
| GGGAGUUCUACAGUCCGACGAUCAAGGACAAAUAAAUAAUUGUGGUUGUGUUCUUAAUGGGGACGAGCAGACACACUGAUCUGAACAUCUGGCCCAAGUGAAGCAUGGCAUAUAGUGCCCUUGGAAGAAAAUUUGGAAUUCUCGGGUGCCAA | 1.68 |
| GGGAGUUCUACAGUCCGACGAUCUGUUUUUUUAAAUCAAGAACUACGUUCUGCCCCUCUCUUGGGCUUCAGAAGCAUCUAAGAAAAGCAGUCAUCAAUUAUAAUUAACUUUCAAAGGGCAAGUCAGAAGUUGUUGGAAUUCUCGGGUGCCAA | 0.357 |
| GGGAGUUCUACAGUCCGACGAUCCCCCGGAAUGAGCCGCCCCACCCACCCCAAGGCUGGAGCCGCUGCACCCUGCUGUCCCUCUCCAGGCCUUGGCAAUGACGAUCCCCCAAAGAGCCCGUCUGCACCCCAGAUGGAAUUCUCGGGUGCCAA | 0.449 |

Study 2 — method: protein binding microarray; form: double-stranded DNA, one strand shown; matrix: in vitro; tested at: not given; reference: not given; reading: higher = stronger binding
Target: Histone acetyltransferase KAT6A, both winged helices, GST fusion (KAT6A, Homo sapiens, UniProt Q92794, residues 1-181)
Setting: 8-mer, flanks averaged, mean of 2 arrays, mostly near background
Construct (chain): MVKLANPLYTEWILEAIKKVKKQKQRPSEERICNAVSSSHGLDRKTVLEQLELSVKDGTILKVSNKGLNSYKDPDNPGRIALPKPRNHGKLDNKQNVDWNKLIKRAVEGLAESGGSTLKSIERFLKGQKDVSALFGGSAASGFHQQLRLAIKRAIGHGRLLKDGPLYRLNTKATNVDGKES
| Sequence | E-score |
| --- | --- |
| CGGGACGC | 0.289 |
| TCACGGGA | 0.24 |
| CAGATCAA | -0.121 |
| AGACATTG | -0.00171 |
| AAGAGGAC | -0.202 |
| CATCCCAA | -0.205 |
| GCGCGCCC | 0.352 |
| CAATCTAG | -0.0172 |
| CGTGAAAC | 0.16 |
| CACGTGAA | 0.0369 |
| AGTAGAAA | -0.0745 |
| TCTTGGAA | -0.0967 |
| CAGTTTAA | -0.092 |
| ACTCCAAG | -0.0955 |
| AGCACACA | -0.254 |
| CTTGATAC | -0.0868 |
| ATGGAGCG | 0.133 |

Study 3 — method: RNA Bind-n-Seq; form: RNA; matrix: in vitro; tested at: 200 nM; setting: whole 134-nt RNA, ends assumed; added: 150 mM KCl; reference: input library; reading: higher = stronger binding
Target: Fragile X messenger ribonucleoprotein 1, C-terminal low-complexity region (Fmr1, Mus musculus, UniProt P35922)
| Sequence | log2 enrichment |
| --- | --- |
| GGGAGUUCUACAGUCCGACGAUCGCAGGAAGUAAAAACAAAUGGAGAUGCUUCGGAUAGUGGCAGGGGUGGGGGUUGCUAAGGAAAGGGUGGGAUGGGAGUGGGUAAAGAGUUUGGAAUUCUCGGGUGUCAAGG | 0.317 |
| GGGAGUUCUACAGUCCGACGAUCAAGUCCUGUGCUACACAUCGUAUGUACCGAAUCGGGUUUGGGUUUUUGGGUUUGGGAAAGUAUUAUGUUACGCCGUUCGGAUCUGCACUUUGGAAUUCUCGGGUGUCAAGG | 0.936 |
| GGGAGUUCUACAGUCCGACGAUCUCCUGUGCUACACAUCGUAUGUACCGAAUCGGUUUUUUGGGGUUUUUUGGUUUUUUGGGGAAAGUAUUAUGUUACGCCGUUCGGAUCUGCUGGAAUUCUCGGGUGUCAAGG | -0.197 |
| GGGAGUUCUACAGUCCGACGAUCCUGUGCUACACAUCGUAUGUACCGAAUCGGGUUUUUUUGGUUUUUUUGGGGUUUUUUUGGGGAAAGUAUUAUGUUACGCCGUUCGGAUCUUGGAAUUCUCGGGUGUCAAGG | -0.312 |
| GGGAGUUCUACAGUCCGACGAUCCCUCAAGUCCUGUGCUACACAUCGUAUGUACCGAAUCGGGUGGUGGGGUGGGGAAAGUAUUAUGUUACGCCGUUCGGAUCUGCACUUCCAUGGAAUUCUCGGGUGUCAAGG | 1.07 |
| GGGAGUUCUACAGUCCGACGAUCUCAAGUCCUGUGCUACACAUCGUAUGUACCGAAUCGGAAAGGGAAAGGGAAAGGGAAAGUAUUAUGUUACGCCGUUCGGAUCUGCACUUCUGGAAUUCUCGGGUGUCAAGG | -0.487 |
| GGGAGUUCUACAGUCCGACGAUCCCUCAAGUCCUGUGCUACACAUCGUAUGUACCGAAUCGGAAGGAAGGGGAAGGAAAGUAUUAUGUUACGCCGUUCGGAUCUGCACUUCCAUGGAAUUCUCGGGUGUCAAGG | -0.112 |
| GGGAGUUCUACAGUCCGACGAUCACCAUGCAGGUGGGCAUCUUUGGGAAGUGGGGCAAGGGGGGGAUAGGGAGGGGGGUAACACUUUGGGACCAGGUGGUCCCAGGUCGUUUCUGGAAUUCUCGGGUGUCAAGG | 0.723 |
| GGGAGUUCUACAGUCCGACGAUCUGUGCUACACAUCGUAUGUACCGAAUCGGGGCCCCCCCGGGGCCCCCCCGGGCCCCCCCGGGAAAGUAUUAUGUUACGCCGUUCGGAUCUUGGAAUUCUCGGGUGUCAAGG | -1.41 |

Study 4 — method: aptamer microarray, sandwich; form: DNA with 2'F-ANA; matrix: in vitro; tested at: 200 nM; added: Cy3 exosite-II aptamer, 400 nM; reading: higher = stronger binding; sequence: GGTTGGTGTGGTTGG
Target: Prothrombin, mature alpha-thrombin (F2, Homo sapiens, UniProt P00734)
Setting: whole 15-mer aptamer, many near background
| Modification | mean fluorescence intensity [a.u.] |
| --- | --- |
| 2'F-ANA at 10 12 14 | 120 |
| 2'F-ANA at 4 6 9 11 12 13 15 | 252 |
| 2'F-ANA at 4 7 9 10 11 13 | 76.1 |
| 2'F-ANA at 3 4 5 6 8 9 10 11 12 14 15 | 54.5 |
| 2'F-ANA at 1 2 5 6 7 8 10 11 13 | 58.2 |
| 2'F-ANA at 2 5 6 7 8 12 13 | 141 |
| 2'F-ANA at 1 2 4 5 8 10 12 13 | 46.9 |
| 2'F-ANA at 1 2 4 5 6 7 8 11 12 13 14 15 | 52 |
| 2'F-ANA at 1 3 4 5 6 10 11 12 13 14 | 51.3 |
| 2'F-ANA at 3 4 7 9 11 12 13 14 15 | 299 |
| 2'F-ANA at 1 3 6 7 9 12 14 | 95.6 |
| 2'F-ANA at 1 3 4 5 6 7 8 10 11 13 | 49.6 |
| 2'F-ANA at 1 4 6 8 10 11 15 | 50.4 |
| 2'F-ANA at 2 5 6 8 11 15 | 65.3 |
| 2'F-ANA at 1 2 3 4 11 13 15 | 125 |
| 2'F-ANA at 2 3 5 6 7 10 12 14 | 44.9 |
| 2'F-ANA at 1 2 4 5 6 8 9 12 14 | 47.2 |
| 2'F-ANA at 2 3 4 6 9 14 15 | 202 |
| 2'F-ANA at 2 5 6 7 8 10 13 14 15 | 49 |
| 2'F-ANA at 4 5 6 10 12 15 | 58.7 |
| 2'F-ANA at 1 2 6 10 13 14 15 | 49.9 |
| 2'F-ANA at 4 5 6 7 10 11 13 14 15 | 49.5 |
| 2'F-ANA at 1 2 4 5 6 7 8 13 14 | 46.2 |

A few entries again (study 4):
| Modification | mean fluorescence intensity [a.u.] |
| --- | --- |
| 2'F-ANA at 2 3 5 6 7 10 12 14 | 44.9 |
| 2'F-ANA at 1 2 4 5 6 8 9 12 14 | 47.2 |
| 2'F-ANA at 2 3 4 6 9 14 15 | 202 |
| 2'F-ANA at 2 5 6 7 8 10 13 14 15 | 49 |
| 2'F-ANA at 4 5 6 10 12 15 | 58.7 |
| 2'F-ANA at 1 2 6 10 13 14 15 | 49.9 |
